Published values from different studies.
Parts stem from different laboratories: compare values within a part only.

Study 1
Target: Interferon regulatory factor 7, full length, phosphomimetic (IRF7, Homo sapiens, UniProt Q92985, residues 1-503, S101K/S471D/S472D/S475D/S476D/S477D/S483D/S484D/S487D)
Sequence of UniProt Q92985 (whole entry, unmodified, looked up): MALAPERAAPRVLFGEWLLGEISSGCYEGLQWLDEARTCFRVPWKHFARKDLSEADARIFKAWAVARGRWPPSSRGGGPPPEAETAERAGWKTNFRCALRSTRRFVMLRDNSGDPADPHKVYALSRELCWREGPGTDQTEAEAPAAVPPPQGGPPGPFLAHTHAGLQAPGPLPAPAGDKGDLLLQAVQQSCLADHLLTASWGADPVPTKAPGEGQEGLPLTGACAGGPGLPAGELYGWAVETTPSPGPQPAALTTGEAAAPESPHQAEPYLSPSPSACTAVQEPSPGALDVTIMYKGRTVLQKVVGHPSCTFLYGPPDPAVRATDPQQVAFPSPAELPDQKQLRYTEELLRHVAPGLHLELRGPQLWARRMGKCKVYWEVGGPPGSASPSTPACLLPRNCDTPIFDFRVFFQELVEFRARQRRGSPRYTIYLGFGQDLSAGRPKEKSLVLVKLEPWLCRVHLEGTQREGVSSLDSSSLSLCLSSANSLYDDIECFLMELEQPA
Technique: protein-binding microarray
Molecule type: double-stranded DNA, one strand shown
Sample: in vitro
Concentration: 250 nM
Setting: 60-bp whole probe
Together with: salmon DNA 0.4 mg/ml
Baseline: random background probes
Reading: higher = stronger binding
All sequences stand within: GCCTAGCAC … GTCTTGATTCGCTTGACGCTGCTG
Sequence | log fluorescence [z-score]
TCATTTTTGGTAATAGTACTGTGCTAG | 0.714
TTAGGTTTCGGGTTTAGGTTAGTGCTA | 11
GACGGTTTCGGGTATCGGGAGGTGCTA | 7.04
TACTTTCTATGTCTGTTTTTGTGCTAG | 2.34
TTACGTTTCCTTATCCTTTAGTGCTAG | 2.32
TTAGAACTGGGTCTCGGTTAGTGCTAG | 0.937
TCATCATTCCAATTCTTACTGTGCTAG | 0.548
TATGTTCCCTATTTAAGGCAGTGCTAG | 4.94
ACGAGTTTCCATTTTCTGAAGTGCTAG | 7.23
GACGATTGCGGGTATCGAGACGTGCTA | -0.453
TTGGGACTGGGTTTCGGTTAGTGCTAG | 5.95
TCATGTCTCTGGCCTGGGACTGTGCTA | 0.00477
TTAGGTTTCCTGCTGCTTTAGTGCTAG | 0.708
TTCATTTACATTTCCAATACGTGCTAG | 1.21
GACGGACTGGGTCTCTGGACGTGCTAG | -0.9
TCTCTTTCCTTACTTCCCAATGTGCTA | 2.6
TCAATTGTGGCTTTTTAACTGTGCTAG | 0.105
GACGATATCATTTTCGAGACGTGCTAG | 0.656
TCATATCTAAGATTCTAACTGTGCTAG | 1.03
TTAGGTTTCGACACTCGGTTAGTGCTA | 4.81
TCATTTCCATTTTCTGAAACTGTGCTA | 3.89
TTACATATCAGTCTCGATTAGTGCTAG | 1.77
TTAGTTATCCTTTTCCTTTAGTGCTAG | 1.56
TCAGATTTCTTCCCTGTGACTGTGCTA | 0.144
CCTAGTTTTACTTTCTATCTGTGCTAG | 2.61

Study 2
Target: RNA binding protein fox-1 homolog 2, RRM domain, GST-SBP tag (RBFOX2, Homo sapiens, UniProt O43251-10, residues 100-194)
Technique: RNA Bind-n-Seq
Molecule type: RNA
Sample: in vitro
Concentration: 365 nM
Setting: natural RNA segment, single round, ends assumed
Baseline: no-protein control
Reading: higher = stronger binding
All sequences stand within: GGGAGUUCUACAGUCCGACGAUC … UGGAAUUCUCGGGUGCCAA
Target sequence (chain): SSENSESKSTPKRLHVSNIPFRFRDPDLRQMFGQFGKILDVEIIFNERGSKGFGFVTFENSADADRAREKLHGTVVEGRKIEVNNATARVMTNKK
Sequence | RBNS enrichment (R)
UUUUUUUUUCAAGCAGCAGUCCUAGGUAUUAACUGGAGCAUGUGUCAGAGUGUUGUUCCGUUAAUUUUGUAAAUACUGCUCGACUGUAACUCUCACAUGUGACAAAGUAU | 2.04
UAACAGGUACCACUUCUGAUCACCCUGUACAUACAUGAGCCGAAAGGCACAAUCACUGUUUCAGAUUUAAAAUUAUUAGUGUGUUUGUUUGGUCCAGAAACUGAGACAAU | 0.232
AAGCCCUUUUGGUAAAAACCAACAGGUUGUGGCCGCAGACCUCAGAUGGACCCGGCCCAUCCCUGGGGACGUGCUGGCGUGGCAGGUCCAGAGAGCUGCACCCUGCACGG | 0.316
GAGCCCUCCUUGAACUGACCUUUGAUUGGUUUCUGCUUCAACUACCAAAAUGUUAUCUCCACUUCCCCCUCACCCGUAGAGGAUCCUGGCCACAGACAGUUUCAAGUAGU | 0.528
CACACGUGCACAUUCCUCCCUUACAUGCUCAUUUGUGCCUUAAAUGUGCCUUAUAGGUAAAUCCAGGAUGACUGAGGAAUCCCUCGUCACUGGGAGAUUUUGUAUAUAUU | 0.484
UCUAGUCUAAAACAUUCUCCUAGGACCAGGGAAGCCUGGCUUACAGUGCCAUUUCUGCUGGGCACCACACCUGCCUGAGGGCCUAGCUCACCACAGCACAUCCUCCAGGA | 0.382
UUGCUUUUGGGCAGAAAAAAGUAGUGAAUAGCAGCGGAGAAAAGAGGAGGCACCCUUGAAUGACUGCAGACCAGCUGUGGGCACUCGCUGCUCCUCCAGGAAAGGGUGAG | 1.03
AUUGAACUCAUUCCCUGUUCCACAAACCCAUAUGUAUCCUUUCCUCUACCUCCUCCUUUCCCAAUUAAUUUCAACCAUAGUACGAUGUUUGGGGUUGUAUAUUUUGUUAA | 1.59
AUUGUCCUGUACGGUCGGUGGCAGUGCUAUUCUGAGAUCUGUAGAUGCUUAGAAUAUCAGUAUUUUGGAUGUUGCUGCAUUUUACAAUUUAUUUGGAGUCUUCCUUUAUU | 2.87
CGUGAUAUGGGGUAAGGAGGUGCUUUUUUAAAAUCGUUCAUAGACUUCUGUAAAAUGCAAGAUAAAUUAAAGUUAUUAUAACAGUGAUUCUUUCAAUUUGGUUUGUCCUU | 0.774
UCUCGGUCCUCUGGCCCCUUCUCCUUGCGGACCUCAUUUGGAAGGACACAUCUCUCUAUGCAAUUUGUCCCCACCCCACCCCGGCAUGAGAGGCCACGCAGCUCCCGACC | 4.81
CCUCUGCAGGGUGAGACUUUUAUUAUUGCCAAUAAGAAUCGAAGGUGAUAAUAAGAUAUAGAAUGCUUUUGUUCAGUUCUCCCCUUACAAAGAAAGUCCCUUGCUUGUCU | 3.71

Study 3
Target: Sal-like protein 4, full length isoform A (SALL4, Homo sapiens, UniProt Q9UJQ4, residues 1-1053)
Sequence of UniProt Q9UJQ4 (whole entry, looked up): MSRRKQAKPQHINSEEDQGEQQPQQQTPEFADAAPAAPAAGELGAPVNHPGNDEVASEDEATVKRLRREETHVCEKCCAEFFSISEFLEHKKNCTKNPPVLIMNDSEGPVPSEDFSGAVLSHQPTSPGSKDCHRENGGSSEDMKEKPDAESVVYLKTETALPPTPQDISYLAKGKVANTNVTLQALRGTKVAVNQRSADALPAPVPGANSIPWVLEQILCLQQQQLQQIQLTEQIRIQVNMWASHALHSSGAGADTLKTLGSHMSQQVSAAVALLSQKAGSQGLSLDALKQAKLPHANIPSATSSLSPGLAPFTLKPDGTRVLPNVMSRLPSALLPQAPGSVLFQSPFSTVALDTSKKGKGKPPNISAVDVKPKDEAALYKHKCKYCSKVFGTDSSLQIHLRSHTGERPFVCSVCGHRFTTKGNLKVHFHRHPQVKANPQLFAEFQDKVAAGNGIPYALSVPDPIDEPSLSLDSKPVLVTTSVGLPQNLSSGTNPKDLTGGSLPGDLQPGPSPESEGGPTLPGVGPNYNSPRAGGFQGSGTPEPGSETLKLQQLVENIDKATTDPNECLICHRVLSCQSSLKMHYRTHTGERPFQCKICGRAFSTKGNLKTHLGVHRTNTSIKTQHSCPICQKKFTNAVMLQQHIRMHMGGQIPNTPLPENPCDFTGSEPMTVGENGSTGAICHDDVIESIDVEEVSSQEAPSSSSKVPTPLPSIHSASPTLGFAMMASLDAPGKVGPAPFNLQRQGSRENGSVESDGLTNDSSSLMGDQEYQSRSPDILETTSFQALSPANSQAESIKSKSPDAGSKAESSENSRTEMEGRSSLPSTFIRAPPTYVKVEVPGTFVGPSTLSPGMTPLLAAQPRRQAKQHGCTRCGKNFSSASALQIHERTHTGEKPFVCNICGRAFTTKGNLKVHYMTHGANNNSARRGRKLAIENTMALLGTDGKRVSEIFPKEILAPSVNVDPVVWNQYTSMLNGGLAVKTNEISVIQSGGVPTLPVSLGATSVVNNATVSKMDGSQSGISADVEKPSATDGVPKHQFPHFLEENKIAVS
Technique: universal PBM
Molecule type: double-stranded DNA, one strand shown
Sample: in vitro
Concentration: 600 nM
Setting: 8-mer, flanks averaged, mean of replicates
Reading: higher = stronger binding
Sequence | E-score
ATGACCAT | 0.101
CCGACCAA | -0.185
AGAGCTTC | -0.171
CCCGCTCG | -0.334
ACCCATCG | -0.156
AGGCGTCA | -0.16
CGAGGGCA | -0.153
GGGGCTTA | -0.238
CGAGGTAA | -0.0278
ACAAAATG | 0.257
CCCGTCGC | -0.332
ACAGACTC | -0.0837
ATGTCTCC | 0.0474
AACCATTA | 0.234
AAGAGGGA | 0.0708
CCCGTGTA | -0.14
GTTGTCAA | -0.0276
AAGACGGG | -0.293
ATGACAAT | 0.299
ACCAACCG | -0.202
AACAGACC | 0.0499
ATATAAGC | 0.289
CCTCAAAA | 0.0878
CTAGCATA | 0.214
CCAGCCGA | -0.326

Study 4
Target: Prothrombin, mature alpha-thrombin (F2, Homo sapiens, UniProt P00734)
Technique: aptamer microarray, sandwich
Molecule type: DNA with 2'F-ANA
Sample: in vitro
Concentration: 200 nM
Setting: whole 15-mer aptamer, many near background
Together with: Cy3 exosite-II aptamer, 400 nM
Reading: higher = stronger binding
Sequence: GGTTGGTGTGGTTGG
Modification | mean fluorescence intensity [a.u.]
2'F-ANA at 1 8 9 12 14 15 | 78.3
2'F-ANA at 5 7 11 13 14 | 58.5
2'F-ANA at 3 10 | 609
2'F-ANA at 5 6 7 8 9 12 15 | 165
2'F-ANA at 1 3 4 6 8 9 10 11 | 63.7
2'F-ANA at 3 8 | 1170
2'F-ANA at 2 5 6 7 8 10 12 13 | 48.6
2'F-ANA at 1 3 6 7 8 9 13 14 | 91.1
2'F-ANA at 1 2 3 4 5 6 7 9 10 11 13 14 | 50.1
2'F-ANA at 1 2 3 5 8 9 10 13 14 | 48.4
2'F-ANA at 1 3 4 5 6 9 10 13 14 15 | 48.7
2'F-ANA at 3 4 6 8 9 11 | 587
2'F-ANA at 3 5 8 9 12 14 15 | 61.4
2'F-ANA at 1 2 4 5 8 12 13 14 15 | 45.7
2'F-ANA at 1 5 8 10 11 12 14 15 | 54.3
2'F-ANA at 2 3 5 7 10 14 15 | 50.2

Study 5
Target: Histone acetyltransferase KAT6A, winged helix 2, GST fusion (KAT6A, Homo sapiens, UniProt Q92794, residues 85-181)
Technique: protein binding microarray
Molecule type: double-stranded DNA, one strand shown
Sample: in vitro
Concentration: not given
Setting: 8-mer, flanks averaged, mean of 2 arrays, mostly near background
Baseline: not given
Reading: higher = stronger binding
Target sequence (chain): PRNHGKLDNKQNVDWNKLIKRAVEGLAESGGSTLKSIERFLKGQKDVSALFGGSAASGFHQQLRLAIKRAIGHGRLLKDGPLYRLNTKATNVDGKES
Sequence | E-score
CCCGTCGC | 0.14
GAAACCGA | 0.0449
CACGGGTC | -0.053
ACTATGGC | -0.0291
CTTAAAAG | 0.0524
AGACCCAC | 0.00611
GATTAGAC | -0.0296
GGGTCCCA | 0.00297
ATTCGGAA | 0.0875
ATGAGCGC | -0.0505
AAACTGCT | -0.125
CCTGAATA | 0.0336
GGGTGACC | 0.126
ATCCTACG | -0.0797
GATGACCA | -0.0369
ATAAAATC | 0.00958
CAGACACA | 0.0671
AGCAGAGC | 0.133
TCTGGGAA | 0.0268
TCTTCCCA | -0.0919
AGGATGCA | 0.0976
GGCCGCCC | 0.0602
CTTAACTA | -0.023
GAATTTCA | 0.0899
ACATGATG | -0.151

For quick reference, copied from above (study 3):
Sequence | E-score
GTTGTCAA | -0.0276
ATGTCTCC | 0.0474
AGAGCTTC | -0.171
ACAAAATG | 0.257
CGAGGGCA | -0.153
CCAGCCGA | -0.326
AAGACGGG | -0.293
